# Measurements pooled from the literature.
# A part holds a random share of what one study measured. Changes are numbered by the printed parent chain.

# Sample 1
# Target: ABI1, truncated, D143A, DHFR fusion (Arabidopsis thaliana)
# Method: DHFR PCA, deep sequencing
# Matrix: yeast
# Notes: methotrexate growth selection, single substitutions
# Added: (+)-ABA 0.11 µM
# Relative to: wild-type fitted maximum
# Direction: higher = stronger binding
# Parent: PYL1, truncated, DHFR fusion (Arabidopsis thaliana); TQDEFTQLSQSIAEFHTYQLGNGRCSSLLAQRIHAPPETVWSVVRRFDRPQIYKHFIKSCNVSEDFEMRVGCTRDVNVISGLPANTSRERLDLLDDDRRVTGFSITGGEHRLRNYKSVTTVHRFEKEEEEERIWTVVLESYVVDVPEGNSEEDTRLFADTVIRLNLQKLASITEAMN; partner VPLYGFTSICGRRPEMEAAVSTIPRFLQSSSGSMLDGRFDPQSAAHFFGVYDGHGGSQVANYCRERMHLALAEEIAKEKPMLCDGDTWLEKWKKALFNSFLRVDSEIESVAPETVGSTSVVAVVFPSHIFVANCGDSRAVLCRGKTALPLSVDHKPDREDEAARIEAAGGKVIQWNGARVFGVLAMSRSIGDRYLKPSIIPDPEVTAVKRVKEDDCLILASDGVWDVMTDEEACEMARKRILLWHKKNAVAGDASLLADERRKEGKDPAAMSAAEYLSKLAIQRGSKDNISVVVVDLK
Variant,relative binding score
T106N,-5.95%
T173P,1.16%
V78C,36.5%
F47K,-6.02%
G21H,20.5%
C60Q,-2.86%
E152C,2.2%
R90D,0.237%
T173K,-0.992%
Y18F,2.31%

# Sample 2
# Target: Interferon regulatory factor 5, full length, phosphomimetic (IRF5, Homo sapiens, UniProt Q13568-2, residues 1-514, S451D/S453D/S456D/S462D)
# Method: protein-binding microarray
# Molecule type: double-stranded DNA, one strand shown
# Matrix: in vitro
# Tested at: 940 nM top
# Notes: 60-bp whole probe
# Added: salmon DNA 0.4 mg/ml
# Relative to: random background probes
# Direction: higher = stronger binding
# Shared flanks, not repeated: GCCTAGCAC … GTCTTGATTCGCTTGACGCTGCTG
Strand,fitted relative affinity
TCAGATATCAGACTGGATTAGTGCTAG,-0.276 z-score
TTAGGTTCCCTCTTCCTTTAGTGCTAG,0.501 z-score
GAAGGTCTCCTACTGCTGACGTGCTAG,0.00211 z-score
AGGAAGATCATTCTCACTGCGTGCTAG,0.371 z-score
TCAATTTTCGTTTTTATACTGTGCTAG,2.14 z-score
TCAAGTTTTAATAACACACTGTGCTAG,0.166 z-score
GACGGTATCGGGACTTGGGACGTGCTA,2.77 z-score
GGTCCTTTCTGCCTCAGAGGGTGCTAG,0.407 z-score
TTAGATATCGGGTTTCGATAAGTGCTA,4.37 z-score
TACAAATCCAGCCCTACAGAGTGCTAG,0.469 z-score
CCCAATCTCTCTTCACATATGTGCTAG,1.54 z-score
TCATGTATGGATGTGTTACTGTGCTAG,-0.0468 z-score
GACGAACTGGGGTATCGAGGCGTGCTA,0.682 z-score
GACGGTATCGGGTTGCGGGACGTGCTA,4.66 z-score
TTTGGACACAGACACAGGCCGTGCTAG,-0.514 z-score
GACGGTCTCCTTAACCTGACGTGCTAG,0.336 z-score

# Sample 3
# Target: Sal-like protein 4, full length isoform A (SALL4, Homo sapiens, UniProt Q9UJQ4, residues 1-1053)
# Chain of UniProt Q9UJQ4 (whole entry, looked up): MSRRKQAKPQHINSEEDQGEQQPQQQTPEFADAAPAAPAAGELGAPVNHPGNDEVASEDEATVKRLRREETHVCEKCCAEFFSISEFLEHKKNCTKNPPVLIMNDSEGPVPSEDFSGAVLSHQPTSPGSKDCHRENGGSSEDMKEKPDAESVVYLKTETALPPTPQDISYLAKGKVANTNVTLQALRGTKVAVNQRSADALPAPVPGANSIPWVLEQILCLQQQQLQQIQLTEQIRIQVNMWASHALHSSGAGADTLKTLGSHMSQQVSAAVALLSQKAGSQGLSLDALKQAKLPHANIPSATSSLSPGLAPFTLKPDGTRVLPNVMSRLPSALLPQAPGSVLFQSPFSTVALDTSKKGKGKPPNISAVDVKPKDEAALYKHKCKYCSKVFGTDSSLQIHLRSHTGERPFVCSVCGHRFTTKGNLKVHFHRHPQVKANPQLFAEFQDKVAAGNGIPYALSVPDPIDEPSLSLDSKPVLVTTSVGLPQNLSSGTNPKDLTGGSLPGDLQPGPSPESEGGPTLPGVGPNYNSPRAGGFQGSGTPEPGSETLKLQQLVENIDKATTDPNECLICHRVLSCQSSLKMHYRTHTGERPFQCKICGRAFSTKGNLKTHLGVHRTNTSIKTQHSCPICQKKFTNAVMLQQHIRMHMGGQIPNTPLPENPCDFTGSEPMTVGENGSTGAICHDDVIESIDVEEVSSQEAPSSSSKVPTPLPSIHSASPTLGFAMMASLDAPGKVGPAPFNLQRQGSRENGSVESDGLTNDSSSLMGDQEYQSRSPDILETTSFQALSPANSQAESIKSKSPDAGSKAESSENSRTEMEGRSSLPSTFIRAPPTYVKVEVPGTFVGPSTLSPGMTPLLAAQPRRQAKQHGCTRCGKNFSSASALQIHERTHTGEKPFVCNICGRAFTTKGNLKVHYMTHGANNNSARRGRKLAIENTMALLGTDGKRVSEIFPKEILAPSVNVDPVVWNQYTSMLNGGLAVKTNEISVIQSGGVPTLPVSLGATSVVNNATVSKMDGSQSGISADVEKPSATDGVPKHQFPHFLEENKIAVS
# Method: universal PBM
# Molecule type: double-stranded DNA, one strand shown
# Matrix: in vitro
# Tested at: 600 nM
# Notes: 8-mer, flanks averaged, mean of replicates
# Direction: higher = stronger binding
Strand,E-score
ATGGACAA,0.164
AGCCATCC,-0.285
ATGGTGGA,-0.0595
AAGTTCGG,-0.166
AAGGAGTC,-0.172
ATCAGGAT,0.112
TAGCGGAA,-0.106
ACCACCCA,-0.204
CAGTTCGG,-0.197
AAATGTGC,0.144
GACAAGCA,-0.0492
GATCATTA,0.236
CAACTTAC,-0.00722
GATTTACA,0.208
AAGACACT,-0.00378
GCTCGGAA,-0.257
AAGTCGGA,-0.076
CCAACTTC,-0.00193
AACTATCA,0.262
CCACGAGG,-0.207
CCAATGCG,-0.156
CGGATTGA,-0.0572
CAACGCGA,-0.294
TCCTGAGA,0.0243
GAGGATGA,0.0378

# Sample 4
# Target: Ras GTPase-activating protein-binding protein 1, full length (G3BP1, Homo sapiens, UniProt Q13283)
# Chain of UniProt Q13283 (whole entry, looked up): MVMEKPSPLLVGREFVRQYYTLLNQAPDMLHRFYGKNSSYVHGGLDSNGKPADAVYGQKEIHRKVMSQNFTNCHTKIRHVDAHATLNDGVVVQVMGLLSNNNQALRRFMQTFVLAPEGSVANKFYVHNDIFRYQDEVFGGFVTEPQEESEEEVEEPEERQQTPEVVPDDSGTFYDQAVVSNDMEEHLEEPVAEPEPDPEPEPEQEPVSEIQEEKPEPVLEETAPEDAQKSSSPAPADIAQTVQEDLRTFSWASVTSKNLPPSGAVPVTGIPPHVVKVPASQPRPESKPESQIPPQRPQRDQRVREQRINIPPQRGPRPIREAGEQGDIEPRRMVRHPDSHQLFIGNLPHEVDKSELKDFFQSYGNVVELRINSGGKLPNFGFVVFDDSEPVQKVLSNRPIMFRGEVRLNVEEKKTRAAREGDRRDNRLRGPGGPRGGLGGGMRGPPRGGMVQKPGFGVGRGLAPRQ
# Method: RNA Bind-n-Seq
# Molecule type: RNA
# Matrix: in vitro
# Tested at: 200 nM
# Notes: whole 134-nt RNA, ends assumed
# Added: 150 mM LiCl
# Relative to: input library
# Direction: higher = stronger binding
# Each molecule: 7-deaza-guanosine replaces G
# Shared flanks, not repeated: GGGAGUUCUACAGUCCGACGAUC … UGGAAUUCUCGGGUGUCAAGG
Strand,log2 enrichment
CUGUGCUACACAUCGUAUGUACCGAAUCGGGCCCCCCCGGGGCCCCCCCGGGGCCCCCCCGGAAAGUAUUAUGUUACGCCGUUCGGAUCU,0.0784
UGGCCCUAGUGGCAUGCGGGGAGGAAGAGGUGGCCUCAUGGAUCGUGGUGGUCCCGGUGGAAUGUUCAGAGGUGGCCGUGGUGGAGACAG,0.365
UUCAUUCCUUGGAAGAAGCUGUACCAUCGAUACCUGAUGAAUGAAGAGCAAGCUGUCAGCAAAGUGGACGGCAUCCUGUCUAACUGUGGC,-2.43
GCAGGAACUAAAAACAAAUGGAAAUGCUUCGGAUAGUGGCAGGGGUGGGGGUUGCUAAGGAAAGGGUGGGAUGGGAGUGGGUAAAGAGUU,0.199
AGUCCUGUGCUACACAUCGUAUGUACCGAAUCGGGCCCCCGGCCCCCGGGCCCCCGGAAAGUAUUAUGUUACGCCGUUCGGAUCUGCACU,-1.06
GUCCUGUGCUACACAUCGUAUGUACCGAAUCGGGGUUUGGGGAAAAAGGGGAAAGGGGAAAGUAUUAUGUUACGCCGUUCGGAUCUGCAC,0.205
UGGCCCUGGUGGCAUGCGGGGAGGAAGAGGUGCCCUCAUGGAUCGUGGUGGUCCCGGUGGAAUGUUCAGAGGUGGCCGUGGUGGAGACAG,-0.767
UCCUGUGCUACACAUCGUAUGUACCGAAUCGGGGCCCCCGGGCCCCCGGGGCCCCCGGGAAAGUAUUAUGUUACGCCGUUCGGAUCUGCA,-1.8
AACUGGAAGAACAGACCCGUAGGGCUCUGGAACUUGAGCAGGAACGGAAGCGUGCCCAGAGCGAGGCUGAAAAGCUGGCCAAGGAGCGUC,-0.796
UGGGAGGUGGAUUUUGUUUAUUUUUUUAGCUCAUUACCAGGGGUGGGAAUUUUUUUUUAAUAUGUGUCAUGAAUAAAGUUGUUUUUGAAA,0.315
UGGCCCUGGUGGCAUGCGGGGAGGAAAAGGUGGCCUCAUGGAUCGUGGUGGUCCCGGUGGAAUGUUCAGAGGUGGCCGUGGUGGAGACAG,0.0506

# Sample 5
# Target: Histone acetyltransferase KAT6A, winged helix 1, GST fusion (KAT6A, Homo sapiens, UniProt Q92794, residues 1-85)
# Method: protein binding microarray
# Molecule type: double-stranded DNA, one strand shown
# Matrix: in vitro
# Tested at: not given
# Notes: 8-mer, flanks averaged, mean of 2 arrays, mostly near background
# Relative to: not given
# Direction: higher = stronger binding
# Target sequence (chain): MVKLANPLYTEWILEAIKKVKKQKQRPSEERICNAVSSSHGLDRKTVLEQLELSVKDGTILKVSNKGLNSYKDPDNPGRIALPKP
Strand,E-score
CAATGCTA,-0.23
ACCTACTG,-0.22
ACAAAACA,-0.238
AAATCGTT,-0.125
CCTGTTAG,-0.171
CGGCTAAC,0.364
TCGGGGCA,0.121
AGTAGTCG,-0.0229
CGTGAAAA,0.00124
CAGATTCG,-0.183
GCTGTTAC,0.17
CAACCCTG,-0.0634
ATCCCGAG,0.25
AGCTCCAC,-0.166
CCGCTCCC,0.377
CGGTTGAC,0.243

# Sample 6
# Target: RNA binding protein fox-1 homolog 2, RRM domain, GST-SBP tag (RBFOX2, Homo sapiens, UniProt O43251-10, residues 100-194)
# Method: RNA Bind-n-Seq
# Molecule type: RNA
# Matrix: in vitro
# Tested at: 365 nM
# Notes: natural RNA segment, single round, ends assumed
# Relative to: no-protein control
# Direction: higher = stronger binding
# Shared flanks, not repeated: GGGAGUUCUACAGUCCGACGAUC … UGGAAUUCUCGGGUGCCAA
# Residues (chain): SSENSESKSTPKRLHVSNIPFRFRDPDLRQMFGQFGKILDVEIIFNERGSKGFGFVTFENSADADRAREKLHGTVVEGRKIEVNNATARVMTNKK
Strand,RBNS enrichment (R)
CAUGGUUCAUCACGAGCAUGAGGGAACAGCAAGGGGCACGGUAUCACAGCCUGGAGACACCCACACAGAUGGCUGGAUCCGGUGCUACGGGAAACAUUUUCCUAAGAUGC,2.24
CUUAAACCAGGUGAAAGAGCAAAGUUCAAGUGCCUACUUAUGUGUCAUUCGCUCAUGUAAGAGUUUUUAAGAGAGGGCUGAUUAUCACAGCCCUCUUUUCUCCUGAAUUU,0.241
CCUUCCAAGUGUUUGCCAUGUGGCAGGCUUUGUUCUGGCUCAGUUUCCAAUUAGAAAGUGGAAAUCUAGAGAUCCAGAUGAACAUAUCCAUCUCAGGAGGCACGGAGGGA,0.639
UCUUUGUACUGUACUCCCCUGUCUCACCUGGGGCAACCUCAGAGCCCCACUAAGCUGAAGGCCCCCUGGGGGAGGGGGAAGCAUGGUCCUUAUCAUCUGCCCUAUCUUGC,0.901
AGACAGAAAUGGGUUGGGUAGUUGGGCUCCCAACCUCGGAUGGUGACCGCAACAUCCCGUGUGGGCGGCCGGCCGCUCCUGCAGCCCGACUCUCCUGCCAGUGUCUUUCA,0.289
UUCCCUAAAGGAAUUUAUAAGCAGGCAACUUCAUUCCUAUGUAUAAGAUAUUGGGAGAAAACAAACUGUACCACAACAAAUCUUAAGUUUCAAGGCUCUCCUAUAGGGAG,0.323
UUAUAGAUCCUAAGUUAUUUACGUAACUCAAACUGAAUGGCUCUCUGAGAUGGAUGACUGGCGUGAACAUGUCUCUGAAGUUGUACUUGAGAAGACAAGAAGAAUAAUGU,0.371
GACAGCUUAAAGGGGUCUACACCCUCAACUUGCUUAAGUGCCCUCUGCUGAUAGCCAGGAAGGAGGGAGACCAGCCCUGCCCCUCAGGACCUGACCUGGCUCAUGAUGCC,0.251
ACAGAGCCCAGAGAAACAGCAGCCAGAAUAUUAGUUCUGAUUCAUCCCCGAGGGAAGAGAGGUACCCAUGGCUUCAGUGAGCACAUGCCAAGCCCAGGAUGCCAGCUGGC,0.412
GCGUAUUUAUUUAAGGCGAAAGCUUUGACCUGAGCUGUCUUCCUCUCCCCUGUACAUGUACUGUAGAAAUGUGUGAUGACAAACGGACUAAUAAAGAACAUUUGGUUGGU,0.923
CCAGUGUCCCACGCUCAUUUUCCCUCCAUCCUGCGUUCCGCCUCCCUUGGUACUCAGCCUUUUGGGGACAGCUGGGGCCAGGACUGGGUCACCUAUGAGCUGAAUCAGCC,0.429
AAAAAUAUGUUCCAGAACCAUGUGCAAGCUCUGUAAGUCACUGCCCGUGUCUGGAUGAAGGGCUUUCGGAAUGUAGAUGGUCAGGAGGUGCAUGCUGCUAUGUGAAUCUU,11.6

# Sample 7
# Target: CCNE1, cyclin fold, Cln2 fusion (human)
# Method: yeast growth competition, sequencing
# Matrix: yeast
# Notes: strong parent motif
# Relative to: not given
# Direction: higher = stronger binding
# Parent: E2F1 docking peptide (human); PPVKRRLDLETDH
Variant,normalised enrichment score
PPVLRRLDLETDH [K4L],0.485
LPVKRRLDLETDH [P1L],3.16
PPCKRRLDLETDH [V3C],2.23
PPVKRRLDLLTDH [E10L],1.05
PPVKRCLDLETDH [R6C],0.558
PPVKRRLDLETDR [H13R],1.61
PPVKPRLDLETDH [R5P],-0.325
PPVVRRLDLETDH [K4V],2.9
PPVKRRWDLETDH [L7W],0.687
PPVKRRLDLEADH [T11A],1.72
PPVKRRLDLTTDH [E10T],0.97
PPVKRRLYLETDH [D8Y],3.28
PPVKRYLDLETDH [R6Y],0.341

# Excerpt of the above (sample 7):
Variant,normalised enrichment score
PPVLRRLDLETDH [K4L],0.485
LPVKRRLDLETDH [P1L],3.16
PPVKPRLDLETDH [R5P],-0.325
PPVKRCLDLETDH [R6C],0.558
PPVKRRLYLETDH [D8Y],3.28
PPVKRYLDLETDH [R6Y],0.341
PPVKRRWDLETDH [L7W],0.687
